Published values from different studies.
Every numbered part comes from another study and shows a few of its results, in no order. Numbers after ± are the reported error.
Sequence of UniProt Q5XXA6 (whole entry, unmodified, looked up): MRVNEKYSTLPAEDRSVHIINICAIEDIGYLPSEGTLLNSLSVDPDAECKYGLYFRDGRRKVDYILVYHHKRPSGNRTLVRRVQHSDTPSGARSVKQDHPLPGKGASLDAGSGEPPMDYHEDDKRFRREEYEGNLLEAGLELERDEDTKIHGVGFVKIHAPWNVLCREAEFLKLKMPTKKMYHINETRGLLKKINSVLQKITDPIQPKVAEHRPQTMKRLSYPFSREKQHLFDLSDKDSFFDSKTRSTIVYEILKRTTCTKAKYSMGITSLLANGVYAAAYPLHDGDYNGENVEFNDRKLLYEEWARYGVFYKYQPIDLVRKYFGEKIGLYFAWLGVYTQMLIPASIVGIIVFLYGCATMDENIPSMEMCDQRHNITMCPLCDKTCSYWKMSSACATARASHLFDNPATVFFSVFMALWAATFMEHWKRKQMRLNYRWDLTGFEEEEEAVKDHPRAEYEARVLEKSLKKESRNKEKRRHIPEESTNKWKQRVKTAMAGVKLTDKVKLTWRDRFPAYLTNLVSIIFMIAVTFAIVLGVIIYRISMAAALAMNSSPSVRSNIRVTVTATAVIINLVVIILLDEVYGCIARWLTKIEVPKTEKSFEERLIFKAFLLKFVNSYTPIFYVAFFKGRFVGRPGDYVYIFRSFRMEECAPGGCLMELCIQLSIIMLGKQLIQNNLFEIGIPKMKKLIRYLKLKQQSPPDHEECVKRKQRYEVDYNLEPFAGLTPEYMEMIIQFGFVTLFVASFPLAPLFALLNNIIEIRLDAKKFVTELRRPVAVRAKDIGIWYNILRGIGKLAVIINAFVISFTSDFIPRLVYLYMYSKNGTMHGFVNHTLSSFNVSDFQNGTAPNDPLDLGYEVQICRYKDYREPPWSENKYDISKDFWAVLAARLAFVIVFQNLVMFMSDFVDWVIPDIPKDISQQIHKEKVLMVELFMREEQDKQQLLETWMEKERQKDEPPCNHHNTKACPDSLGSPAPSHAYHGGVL
Sequence of UniProt P35626 (whole entry, looked up): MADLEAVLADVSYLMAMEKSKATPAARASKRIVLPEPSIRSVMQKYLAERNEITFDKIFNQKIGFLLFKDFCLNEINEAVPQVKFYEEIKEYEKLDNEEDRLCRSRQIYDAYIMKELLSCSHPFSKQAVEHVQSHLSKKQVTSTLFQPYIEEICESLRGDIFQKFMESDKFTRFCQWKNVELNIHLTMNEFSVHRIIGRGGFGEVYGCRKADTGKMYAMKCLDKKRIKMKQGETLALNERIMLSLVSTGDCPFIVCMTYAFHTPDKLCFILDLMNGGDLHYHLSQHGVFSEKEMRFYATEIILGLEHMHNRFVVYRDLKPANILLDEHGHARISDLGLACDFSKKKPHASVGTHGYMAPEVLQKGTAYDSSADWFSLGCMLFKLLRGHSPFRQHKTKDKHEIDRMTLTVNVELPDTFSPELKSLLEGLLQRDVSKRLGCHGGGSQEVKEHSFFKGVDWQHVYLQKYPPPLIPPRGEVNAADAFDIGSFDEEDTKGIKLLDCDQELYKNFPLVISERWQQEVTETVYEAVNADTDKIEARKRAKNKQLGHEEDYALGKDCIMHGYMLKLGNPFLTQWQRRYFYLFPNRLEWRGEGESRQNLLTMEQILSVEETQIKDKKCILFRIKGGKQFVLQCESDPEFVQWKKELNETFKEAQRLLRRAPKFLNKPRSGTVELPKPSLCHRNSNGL

Block 1
Structure (SMILES): C=CCc1ccc(O)c(-c2ccc(O)c(CC=C)c2)c1
Observed: chloride current
Technique: whole-cell voltage clamp
| target | action | tested at | notes | IC50 [µM] |
| --- | --- | --- | --- | --- |
| Anoctamin-1 (ANO1, Homo sapiens, UniProt Q5XXA6, del476-501/R631D) | inhibitor |  | R605D mutant at -60 mV | 18.7 |
| Anoctamin-1 (ANO1, Homo sapiens, UniProt Q5XXA6, del476-501/E650A) |  |  | membrane voltage -60 mV | 4.92 |
| Anoctamin-1 (ANO1, Homo sapiens, UniProt Q5XXA6, del476-501/F807I) | inhibitor |  | F781I mutant at -20 mV | 6.91 |
| Anoctamin-1 (ANO1, Homo sapiens, UniProt Q5XXA6, del476-501/F627A) |  |  | membrane voltage 80 mV | 7.05 |
| Anoctamin-1 (ANO1, Homo sapiens, UniProt Q5XXA6, del476-501/F807W) | inhibitor | 20 mV holding voltage |  | 8.72 |
| Anoctamin-1 (ANO1, Homo sapiens, UniProt Q5XXA6, del476-501/M544A) |  |  | membrane voltage 100 mV | 4.62 |
| Anoctamin-1 (ANO1, Homo sapiens, UniProt Q5XXA6, del476-501/F807A) |  |  | membrane voltage 20 mV | 21.5 |
| Anoctamin-1 (ANO1, Homo sapiens, UniProt Q5XXA6, del476-501/R561A) |  |  | membrane voltage 100 mV | 6.49 |
| Anoctamin-1 (ANO1, Homo sapiens, UniProt Q5XXA6, del476-501/F803A) |  |  | membrane voltage -80 mV | 20.7 |

Block 2
Target: Beta-1 adrenergic receptor (ADRB1, Homo sapiens, UniProt P08588)
Sequence of UniProt P08588 (whole entry, looked up): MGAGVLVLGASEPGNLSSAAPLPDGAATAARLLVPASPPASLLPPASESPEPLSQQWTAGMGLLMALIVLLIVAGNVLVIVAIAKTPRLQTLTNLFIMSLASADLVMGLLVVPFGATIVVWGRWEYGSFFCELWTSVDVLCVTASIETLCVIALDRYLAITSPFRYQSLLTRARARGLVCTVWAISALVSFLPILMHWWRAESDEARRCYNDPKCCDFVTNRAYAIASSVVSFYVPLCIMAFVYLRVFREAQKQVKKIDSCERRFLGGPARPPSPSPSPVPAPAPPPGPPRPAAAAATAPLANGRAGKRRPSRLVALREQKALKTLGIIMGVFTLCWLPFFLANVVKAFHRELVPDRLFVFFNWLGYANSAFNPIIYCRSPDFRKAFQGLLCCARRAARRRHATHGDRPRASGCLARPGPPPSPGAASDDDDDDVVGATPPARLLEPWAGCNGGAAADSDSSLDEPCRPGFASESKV
Action: antagonist
| SMILES | IC50 |
| --- | --- |
| COc1ccccc1N1CCN(C(C)C(=O)NC2CCC(C)CC2)CC1 (stereo not drawn) | ≥ 100 µM |
| CN(C)c1ccc2c(c1)OC(N)=C(C#N)C2c1cccc(C(F)(F)F)c1 (stereo not drawn) | 11.2 µM |
| OC(CN1CCN(c2cccc(Cl)c2)CC1)C(c1ccccc1)c1ccccc1 (stereo not drawn) | ≥ 100 µM |
| Cc1cc(C)n(C2CN(Cc3cccc(OCC(O)CN4CCOCC4)c3)C2)n1 (stereo not drawn) | ≥ 100 µM |
| O=c1c2nc(-c3ccc4c(c3)OCO4)ccc2ncn1-c1ccc(F)cc1F | ≥ 100 µM |
| O=C1c2cnc(-c3ccsc3)nc2OCCN1c1cccc(C(F)(F)F)c1 | ≥ 100 µM |
| Cc1ncc(-c2cc(C(=O)N3CCCCCCC3)c3cc(F)ccc3n2)cn1 | ≥ 100 µM |
| CN(CCC(O)c1ccccc1)C(=O)c1coc(Cn2cnc3ccccc32)n1 (stereo not drawn) | ≥ 100 µM |

Block 3
Compound: COc1cc(C(=O)N2CCC(N3CCN(C)CC3)CC2)ccc1Nc1ncc2c(n1)N(C)c1ccccc1C(=O)N2C
Observed: kinase activity
| target | tested at | remaining activity [%] |
| --- | --- | --- |
| IRR | 10 µM | 91 ± 6 |
| JNK1 | 10 µM | 96 ± 3 |
| EF2K | 1 µM | 75 ± 10 |
| CK1 | 10 µM | 85 ± 1 |
| SGK1 | 1 µM | 75 ± 14 |
| p38b MAPK | 10 µM | 45 ± 1 |
| HIPK1 | 1 µM | 94 ± 4 |
| DYRK1A | 10 µM | 95 ± 1 |
| EPH-B3 | 1 µM | 71 ± 1 |

Mixed results
| SMILES | target | observed | technique | endpoint | value |
| --- | --- | --- | --- | --- | --- |
| O=C1NC(c2ccccn2)Sc2ccccc21 (stereo not drawn) | G protein-coupled receptor kinase 3 (GRK3, Homo sapiens, UniProt P35626) | binding | competition with immobilised ligand | Kd | > 10 µM |

For quick reference, copied from above (block 1):
| target | action | tested at | notes | IC50 [µM] |
| --- | --- | --- | --- | --- |
| Anoctamin-1 (ANO1, Homo sapiens, UniProt Q5XXA6, del476-501/F807W) | inhibitor | 20 mV holding voltage |  | 8.72 |
| Anoctamin-1 (ANO1, Homo sapiens, UniProt Q5XXA6, del476-501/F807A) |  |  | membrane voltage 20 mV | 21.5 |
| Anoctamin-1 (ANO1, Homo sapiens, UniProt Q5XXA6, del476-501/F627A) |  |  | membrane voltage 80 mV | 7.05 |
